Results gathered from unrelated publications.
A part holds a random share of what one study measured. Substitutions count along the parent as printed.
UniProt P28335, sequence (whole entry, looked up): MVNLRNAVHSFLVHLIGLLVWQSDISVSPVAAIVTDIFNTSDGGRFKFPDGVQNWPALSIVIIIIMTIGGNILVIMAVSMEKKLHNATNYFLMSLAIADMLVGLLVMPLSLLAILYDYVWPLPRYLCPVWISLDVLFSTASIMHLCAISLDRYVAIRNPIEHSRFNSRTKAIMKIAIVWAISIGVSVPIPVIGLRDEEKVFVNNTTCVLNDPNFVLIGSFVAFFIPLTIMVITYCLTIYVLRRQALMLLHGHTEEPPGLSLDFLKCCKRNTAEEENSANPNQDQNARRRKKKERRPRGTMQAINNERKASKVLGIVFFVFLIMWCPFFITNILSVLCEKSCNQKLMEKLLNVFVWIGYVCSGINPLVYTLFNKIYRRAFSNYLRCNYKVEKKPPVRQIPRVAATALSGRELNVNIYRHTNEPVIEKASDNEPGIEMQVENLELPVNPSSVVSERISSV

Series 1
Substitution: D153W
Target: ABI1, truncated, D143A, DHFR fusion (Arabidopsis thaliana)
Technique: DHFR PCA, deep sequencing
Sample: yeast
Setting: methotrexate growth selection, single substitutions
Relative to: wild-type fitted maximum
Reading: higher = stronger binding
Starting sequence: PYL1, truncated, DHFR fusion (Arabidopsis thaliana); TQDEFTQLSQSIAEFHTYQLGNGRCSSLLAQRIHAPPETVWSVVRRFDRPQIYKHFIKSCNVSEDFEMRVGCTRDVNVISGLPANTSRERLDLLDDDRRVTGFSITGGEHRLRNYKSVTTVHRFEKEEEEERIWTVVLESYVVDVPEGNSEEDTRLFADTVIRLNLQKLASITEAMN
setting | relative binding score [%]
together with: (+)-ABA 0.0091 µM | -1.97
together with: (+)-ABA 200 µM | 2.96
together with: (+)-ABA 17 µM | -1.62
together with: (+)-ABA 0.39 µM | -1.89
together with: (+)-ABA 58 µM | 4.22
together with: (+)-ABA 0.11 µM | 4.47

Series 2
Target: TAR DNA-binding protein 43, full length, His tag (TARDBP, Homo sapiens, UniProt Q13148, residues 1-414)
Technique: RNA Bind-n-Seq
Form: RNA
Sample: in vitro
Tested at: 20 nM
Setting: 6-mer, flanks averaged, single round
Together with: 150 mM LiCl
Relative to: input library
Reading: higher = stronger binding
Strand | 6-mer enrichment (R)
UAAGAG | 1.02
CCGGAA | 0.869
ACACAG | 0.837
AAGAAG | 0.993
UCCCGA | 0.912
AGUUGC | 0.99
GUGCGU | 1.43
GCUGUU | 1.07

Series 3
Target: vanadate, free oxyanion
Technique: microfluidic competitive inhibition
Sample: in vitro, cell-free expressed
Tested at: not given
Setting: derived from inhibition constants, unchanged parent 676 nM
Reading: lower = stronger binding
Starting sequence: PafA, mature enzyme, eGFP fusion (Elizabethkingia meningoseptica, UniProt Q9KJX5); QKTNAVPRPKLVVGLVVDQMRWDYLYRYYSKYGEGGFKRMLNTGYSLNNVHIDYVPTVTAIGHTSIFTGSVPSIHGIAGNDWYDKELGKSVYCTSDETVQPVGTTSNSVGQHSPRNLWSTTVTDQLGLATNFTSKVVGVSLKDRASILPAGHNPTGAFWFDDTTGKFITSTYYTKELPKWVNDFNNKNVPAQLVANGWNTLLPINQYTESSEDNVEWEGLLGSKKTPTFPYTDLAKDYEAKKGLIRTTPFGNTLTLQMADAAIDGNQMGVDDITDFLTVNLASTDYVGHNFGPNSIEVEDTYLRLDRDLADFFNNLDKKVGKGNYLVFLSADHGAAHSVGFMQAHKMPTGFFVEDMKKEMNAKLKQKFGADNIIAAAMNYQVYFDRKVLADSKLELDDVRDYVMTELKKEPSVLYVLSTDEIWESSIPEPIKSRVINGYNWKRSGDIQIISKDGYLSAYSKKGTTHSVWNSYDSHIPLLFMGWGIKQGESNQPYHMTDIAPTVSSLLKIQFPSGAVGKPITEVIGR
Substitution | oxyanion analog dissociation constant
S392V | 653 nM
V298G | 838 nM
V58G | 3.13 µM
V416A | 649 nM
A129G | 684 nM
F511G | 703 nM
D391G | 673 nM
W22G | 1.1 µM
F384G | 486 nM
F67G | 359 nM
S505V | 837 nM
T171G | 597 nM
A375V | 1.16 µM
V181G | 976 nM
W198G | 485 nM
S90G | 595 nM
A310G | 674 nM
V339A | 884 nM
K135G | 751 nM
S338G | 552 nM
A331V | 2.11 µM
P293V | 693 nM
V50G | 601 nM
G369V | 666 nM
W118G | 723 nM

Series 4
Target: Sal-like protein 4, full length isoform A (SALL4, Homo sapiens, UniProt Q9UJQ4, residues 1-1053)
UniProt Q9UJQ4, sequence (whole entry, looked up): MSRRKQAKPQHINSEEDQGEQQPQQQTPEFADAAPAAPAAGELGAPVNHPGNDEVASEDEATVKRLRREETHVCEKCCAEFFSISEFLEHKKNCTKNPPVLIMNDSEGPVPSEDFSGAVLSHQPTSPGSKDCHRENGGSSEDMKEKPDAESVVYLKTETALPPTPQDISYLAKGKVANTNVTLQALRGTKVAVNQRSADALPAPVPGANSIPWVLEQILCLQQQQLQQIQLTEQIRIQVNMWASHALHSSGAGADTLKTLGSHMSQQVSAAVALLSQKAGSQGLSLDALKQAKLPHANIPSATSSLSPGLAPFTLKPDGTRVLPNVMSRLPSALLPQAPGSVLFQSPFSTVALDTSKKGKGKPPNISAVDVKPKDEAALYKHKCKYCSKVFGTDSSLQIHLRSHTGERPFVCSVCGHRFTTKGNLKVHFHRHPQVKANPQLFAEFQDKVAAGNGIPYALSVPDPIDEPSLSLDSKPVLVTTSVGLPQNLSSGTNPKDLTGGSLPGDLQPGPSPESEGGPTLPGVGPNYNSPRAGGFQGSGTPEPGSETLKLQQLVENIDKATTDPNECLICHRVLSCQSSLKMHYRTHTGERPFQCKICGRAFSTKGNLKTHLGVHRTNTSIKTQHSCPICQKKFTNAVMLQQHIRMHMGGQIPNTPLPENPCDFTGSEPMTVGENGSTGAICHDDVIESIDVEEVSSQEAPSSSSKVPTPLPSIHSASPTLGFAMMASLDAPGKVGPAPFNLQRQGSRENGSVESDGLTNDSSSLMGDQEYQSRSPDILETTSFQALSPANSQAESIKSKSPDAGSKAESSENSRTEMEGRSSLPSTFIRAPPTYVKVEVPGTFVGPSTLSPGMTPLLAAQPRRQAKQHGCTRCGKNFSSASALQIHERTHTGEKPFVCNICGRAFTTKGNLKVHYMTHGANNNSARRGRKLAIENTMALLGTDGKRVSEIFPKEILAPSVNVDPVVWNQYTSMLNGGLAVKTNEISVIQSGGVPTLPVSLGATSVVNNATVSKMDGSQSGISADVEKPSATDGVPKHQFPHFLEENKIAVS
Technique: universal PBM
Form: double-stranded DNA, one strand shown
Sample: in vitro
Tested at: 600 nM
Setting: 8-mer, flanks averaged, mean of replicates
Reading: higher = stronger binding
Strand | E-score
CACAGATA | 0.136
CGGAGAAA | -0.106
ACTAGTGA | 0.0319
CCGGCCAC | -0.353
ATAGTGGG | 0.0224
CACGTATC | -0.0583
GCACAGGC | -0.169
GATCGTCC | -0.164

Series 5
Target: PABPC1L2, full length, GST fusion (mouse, UniProt A0ABA7IW68)
Technique: RNAcompete
Form: RNA
Sample: in vitro
Tested at: 20 nM
Setting: 7-mer, probes averaged, single round
Relative to: mean of 7-mers
Reading: higher = stronger binding
Target sequence (chain): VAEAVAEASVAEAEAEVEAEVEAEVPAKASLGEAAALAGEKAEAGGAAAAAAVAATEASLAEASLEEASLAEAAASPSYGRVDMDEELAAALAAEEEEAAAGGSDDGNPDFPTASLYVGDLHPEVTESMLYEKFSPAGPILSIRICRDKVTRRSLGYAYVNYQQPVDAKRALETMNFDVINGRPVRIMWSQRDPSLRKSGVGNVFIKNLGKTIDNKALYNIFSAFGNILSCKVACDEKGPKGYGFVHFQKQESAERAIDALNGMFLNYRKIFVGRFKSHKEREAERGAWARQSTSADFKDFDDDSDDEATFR
Strand | 7-mer Z-score
GCACGUC | -0.255
GAAAAGC | 1.97
UCGGUUG | -0.382
UACGUAU | -0.222
UUACACC | -0.209
CCGAAUA | 0.0134
AAUGCGA | 0.234
UUUUGCG | -0.331

Further values, each from its own experiment
SMILES | target | assay | setting | endpoint | result
COc1cccc(NC(=O)c2nc3scc(CN(C)Cc4ccccc4)c3c(=O)[nH]2)c1 | 5-hydroxytryptamine receptor 2C (HTR2C, Homo sapiens, UniProt P28335) | ligand displacement | 10 µM | inhibition | 13.5%

A few entries again (series 4):
Strand | E-score
CCGGCCAC | -0.353
CGGAGAAA | -0.106
CACAGATA | 0.136
ACTAGTGA | 0.0319
CACGTATC | -0.0583
GCACAGGC | -0.169
GATCGTCC | -0.164
